Published values collected from several papers.
± marks the error that the study gave.
CHEK1: Serine/threonine-protein kinase Chk1 (CHEK1, Homo sapiens, UniProt O14757)
Sequence of UniProt O14757 (whole entry, looked up): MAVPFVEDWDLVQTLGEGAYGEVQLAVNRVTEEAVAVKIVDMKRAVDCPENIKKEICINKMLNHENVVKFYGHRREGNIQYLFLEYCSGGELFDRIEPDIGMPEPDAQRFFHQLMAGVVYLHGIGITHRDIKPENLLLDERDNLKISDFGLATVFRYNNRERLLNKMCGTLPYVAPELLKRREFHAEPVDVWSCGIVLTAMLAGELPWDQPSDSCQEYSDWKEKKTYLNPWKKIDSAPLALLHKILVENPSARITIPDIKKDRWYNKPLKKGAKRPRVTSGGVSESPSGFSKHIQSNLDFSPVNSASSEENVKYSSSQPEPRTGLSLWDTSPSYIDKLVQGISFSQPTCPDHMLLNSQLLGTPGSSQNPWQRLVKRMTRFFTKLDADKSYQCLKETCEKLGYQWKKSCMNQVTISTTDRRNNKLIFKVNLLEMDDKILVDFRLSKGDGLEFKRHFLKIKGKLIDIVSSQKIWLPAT
dcp2 with Dcp1: mRNA decapping complex subunit 2, with Dcp1 (dcp2, Schizosaccharomyces pombe, UniProt O13828)
Sequence of UniProt O13828 (whole entry, looked up): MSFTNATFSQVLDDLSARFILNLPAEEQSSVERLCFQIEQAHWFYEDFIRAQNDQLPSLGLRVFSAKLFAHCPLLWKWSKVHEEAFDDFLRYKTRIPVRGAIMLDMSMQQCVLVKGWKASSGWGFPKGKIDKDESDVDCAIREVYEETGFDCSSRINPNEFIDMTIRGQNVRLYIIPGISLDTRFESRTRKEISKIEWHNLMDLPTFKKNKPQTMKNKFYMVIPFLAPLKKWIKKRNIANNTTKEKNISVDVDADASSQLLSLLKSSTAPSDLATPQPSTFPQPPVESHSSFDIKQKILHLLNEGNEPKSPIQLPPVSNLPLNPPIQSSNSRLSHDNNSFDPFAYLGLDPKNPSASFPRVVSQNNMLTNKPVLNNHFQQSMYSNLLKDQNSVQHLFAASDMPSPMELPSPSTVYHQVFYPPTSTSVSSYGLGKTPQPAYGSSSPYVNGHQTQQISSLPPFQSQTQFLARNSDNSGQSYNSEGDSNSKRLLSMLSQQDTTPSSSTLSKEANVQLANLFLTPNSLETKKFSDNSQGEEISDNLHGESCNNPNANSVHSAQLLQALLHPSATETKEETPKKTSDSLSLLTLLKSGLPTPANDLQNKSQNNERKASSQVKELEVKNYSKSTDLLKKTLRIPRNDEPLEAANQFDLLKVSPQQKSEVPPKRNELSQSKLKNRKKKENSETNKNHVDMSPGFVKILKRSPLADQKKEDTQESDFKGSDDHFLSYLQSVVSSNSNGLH
ache: Acetylcholinesterase (ache, Electrophorus electricus, UniProt O42275)
Sequence of UniProt O42275 (whole entry, looked up): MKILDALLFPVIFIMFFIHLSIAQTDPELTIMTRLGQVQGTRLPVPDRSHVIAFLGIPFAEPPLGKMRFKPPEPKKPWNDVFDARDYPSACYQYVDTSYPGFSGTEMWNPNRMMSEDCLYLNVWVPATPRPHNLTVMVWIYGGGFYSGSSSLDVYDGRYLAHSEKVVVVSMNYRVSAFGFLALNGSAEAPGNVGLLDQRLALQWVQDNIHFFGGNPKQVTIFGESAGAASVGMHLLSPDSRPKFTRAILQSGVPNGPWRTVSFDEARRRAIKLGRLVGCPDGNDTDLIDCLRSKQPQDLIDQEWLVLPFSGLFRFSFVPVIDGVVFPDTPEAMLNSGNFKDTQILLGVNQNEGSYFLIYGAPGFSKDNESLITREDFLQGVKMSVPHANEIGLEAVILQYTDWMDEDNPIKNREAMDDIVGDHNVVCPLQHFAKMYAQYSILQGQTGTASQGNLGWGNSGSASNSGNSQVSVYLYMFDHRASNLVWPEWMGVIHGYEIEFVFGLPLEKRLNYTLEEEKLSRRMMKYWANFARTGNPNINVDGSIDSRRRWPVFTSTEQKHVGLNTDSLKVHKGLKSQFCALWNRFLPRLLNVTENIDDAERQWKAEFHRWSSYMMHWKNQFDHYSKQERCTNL
Sequence of UniProt P25929 (whole entry, looked up): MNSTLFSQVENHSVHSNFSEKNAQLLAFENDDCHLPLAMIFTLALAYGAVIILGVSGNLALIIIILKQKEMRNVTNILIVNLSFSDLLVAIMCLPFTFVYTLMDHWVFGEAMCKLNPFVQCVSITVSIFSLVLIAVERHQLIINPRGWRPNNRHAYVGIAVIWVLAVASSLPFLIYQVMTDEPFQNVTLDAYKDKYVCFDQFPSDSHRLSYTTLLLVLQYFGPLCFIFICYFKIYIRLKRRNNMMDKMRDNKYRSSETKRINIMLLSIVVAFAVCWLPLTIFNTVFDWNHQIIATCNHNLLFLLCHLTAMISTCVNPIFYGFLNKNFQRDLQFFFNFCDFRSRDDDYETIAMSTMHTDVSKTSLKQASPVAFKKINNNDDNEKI
Sequence of UniProt P27338 (whole entry, looked up): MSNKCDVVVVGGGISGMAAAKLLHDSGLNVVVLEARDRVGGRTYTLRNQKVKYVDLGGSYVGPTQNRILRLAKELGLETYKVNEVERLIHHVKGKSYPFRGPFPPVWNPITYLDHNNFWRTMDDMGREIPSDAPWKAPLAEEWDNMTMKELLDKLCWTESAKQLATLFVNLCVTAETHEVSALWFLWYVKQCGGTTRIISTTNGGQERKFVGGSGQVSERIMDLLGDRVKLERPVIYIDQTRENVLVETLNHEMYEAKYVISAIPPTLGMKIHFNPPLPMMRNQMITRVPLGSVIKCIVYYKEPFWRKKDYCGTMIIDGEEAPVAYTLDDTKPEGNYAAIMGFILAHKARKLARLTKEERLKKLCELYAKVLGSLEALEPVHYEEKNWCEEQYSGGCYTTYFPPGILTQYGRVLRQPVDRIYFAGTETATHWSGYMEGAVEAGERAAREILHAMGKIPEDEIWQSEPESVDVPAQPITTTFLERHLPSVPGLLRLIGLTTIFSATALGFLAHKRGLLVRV
Sequence of UniProt O15146 (whole entry, looked up): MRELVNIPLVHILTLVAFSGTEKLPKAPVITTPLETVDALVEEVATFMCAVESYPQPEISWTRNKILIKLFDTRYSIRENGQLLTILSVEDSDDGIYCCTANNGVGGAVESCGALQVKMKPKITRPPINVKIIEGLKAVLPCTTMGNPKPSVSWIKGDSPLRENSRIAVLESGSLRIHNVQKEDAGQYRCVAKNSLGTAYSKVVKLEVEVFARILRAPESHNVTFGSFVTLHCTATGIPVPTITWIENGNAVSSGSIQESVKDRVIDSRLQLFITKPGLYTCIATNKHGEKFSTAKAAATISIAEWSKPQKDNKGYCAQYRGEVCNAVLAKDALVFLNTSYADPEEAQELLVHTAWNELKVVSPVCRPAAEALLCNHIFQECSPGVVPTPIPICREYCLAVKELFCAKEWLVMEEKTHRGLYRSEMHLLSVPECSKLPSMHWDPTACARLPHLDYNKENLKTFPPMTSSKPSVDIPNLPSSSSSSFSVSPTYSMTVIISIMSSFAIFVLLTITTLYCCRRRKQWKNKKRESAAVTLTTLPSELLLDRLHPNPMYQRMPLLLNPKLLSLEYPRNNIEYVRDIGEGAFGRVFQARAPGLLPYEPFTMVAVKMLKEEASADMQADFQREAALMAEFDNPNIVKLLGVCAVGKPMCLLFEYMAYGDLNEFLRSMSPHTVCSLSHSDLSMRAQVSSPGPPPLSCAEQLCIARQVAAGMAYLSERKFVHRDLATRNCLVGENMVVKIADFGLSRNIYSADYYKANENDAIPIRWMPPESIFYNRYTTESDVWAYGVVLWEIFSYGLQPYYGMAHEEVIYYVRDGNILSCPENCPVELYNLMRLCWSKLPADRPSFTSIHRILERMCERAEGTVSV
Sequence of UniProt P34969 (whole entry, looked up): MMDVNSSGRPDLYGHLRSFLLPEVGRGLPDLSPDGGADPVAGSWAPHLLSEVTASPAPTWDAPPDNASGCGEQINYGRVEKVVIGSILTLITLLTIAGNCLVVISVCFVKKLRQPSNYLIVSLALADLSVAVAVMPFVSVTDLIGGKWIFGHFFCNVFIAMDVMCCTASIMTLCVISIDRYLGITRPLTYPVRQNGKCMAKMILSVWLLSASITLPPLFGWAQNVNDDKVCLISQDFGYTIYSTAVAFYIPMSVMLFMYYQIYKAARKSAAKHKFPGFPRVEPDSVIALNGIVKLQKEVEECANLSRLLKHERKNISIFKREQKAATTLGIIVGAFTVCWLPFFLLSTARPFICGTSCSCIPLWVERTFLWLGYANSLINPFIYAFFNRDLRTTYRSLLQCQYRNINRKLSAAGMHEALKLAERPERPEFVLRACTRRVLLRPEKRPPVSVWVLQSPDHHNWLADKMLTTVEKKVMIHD
Sequence of UniProt Q9BUB5 (whole entry, looked up): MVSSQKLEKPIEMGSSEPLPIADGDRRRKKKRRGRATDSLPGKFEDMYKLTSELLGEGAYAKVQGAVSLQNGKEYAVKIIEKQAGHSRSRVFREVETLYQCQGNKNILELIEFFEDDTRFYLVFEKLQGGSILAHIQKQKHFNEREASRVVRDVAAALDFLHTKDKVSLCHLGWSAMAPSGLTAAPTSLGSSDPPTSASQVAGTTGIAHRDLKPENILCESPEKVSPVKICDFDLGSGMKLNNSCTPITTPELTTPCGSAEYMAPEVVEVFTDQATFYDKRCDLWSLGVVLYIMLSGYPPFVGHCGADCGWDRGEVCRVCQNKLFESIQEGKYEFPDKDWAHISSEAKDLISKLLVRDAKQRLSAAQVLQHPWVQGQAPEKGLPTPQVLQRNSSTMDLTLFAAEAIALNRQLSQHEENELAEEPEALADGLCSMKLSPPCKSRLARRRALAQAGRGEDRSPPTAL
Sequence of UniProt Q9Y570 (whole entry, looked up): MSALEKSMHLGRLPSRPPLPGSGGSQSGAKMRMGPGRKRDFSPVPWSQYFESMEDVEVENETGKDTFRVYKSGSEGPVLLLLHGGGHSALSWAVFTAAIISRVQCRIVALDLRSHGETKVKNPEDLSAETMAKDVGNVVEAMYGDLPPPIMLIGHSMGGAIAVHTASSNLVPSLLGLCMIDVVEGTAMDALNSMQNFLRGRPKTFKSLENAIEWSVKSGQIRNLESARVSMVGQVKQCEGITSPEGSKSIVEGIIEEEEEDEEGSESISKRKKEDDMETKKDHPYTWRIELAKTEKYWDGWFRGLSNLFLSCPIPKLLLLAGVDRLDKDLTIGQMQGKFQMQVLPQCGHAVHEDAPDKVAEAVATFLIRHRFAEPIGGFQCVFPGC

Compound	target	assay	system	setting	inhibition
O=C(CN1CN(c2ccccc2)C2(CCN(C(=O)c3cnc4[nH]ncc4c3)CC2)C1=O)NCC(F)(F)F	CHEK1	inhibitor		concentration not given	< 50%
N[C@H](C(=O)N1CCCC1)C1CCN(c2nccc3c(-c4ncc(Cl)cc4Cl)cccc23)CC1	CHEK1	kinase activity, inhibitor		10 µM, with: ATP 1 mM	0.3%
C[n+]1cn([C@@H]2O[C@H](COP(=O)(O)CP(=O)([O-])OP(=O)(O)O)[C@@H](O)[C@H]2O)c2nc(N)nc(O)c21	dcp2 with Dcp1			200 µM, 0.5 h	25.9%
O=C(NC1CCN(c2ncnc3[nH]cnc23)CC1)c1cccc(NS(=O)(=O)c2ccc(C(F)(F)F)cc2)c1	Replicase polyprotein 1ab, nsp14 (Human coronavirus OC43, UniProt P0C6X6)	enzyme activity		12.5 µM	78.8%
Cc1ccc2c(n1)c(-c1cccc(S(C)(=O)=O)c1)c(C)n2C/C(F)=C/CN	Amine oxidase [flavin-containing] B (MAOB, Homo sapiens, UniProt P27338)	ligand displacement		10 µM	23%
CN[C@@H]1[C@H](O)[C@H](NC)[C@H]2O[C@]3(O)[C@H](O[C@@H]2[C@H]1O)O[C@H](C)C[C@H]3NC(=O)Cc1cc(Cl)ccn1	Endothelin receptor type B (EDNRB, Homo sapiens, UniProt P24530)	ligand displacement, radioligand		10 µM	-1%
COc1ccc(F)cc1S(=O)(=O)Nc1cnc2c(c1)C(=O)NCCO2	GABAA receptor	radioligand binding	hippocampus	10 µM, with: Ro 15-1788	-5%
O=S(=O)(F)CCc1cn(-c2cnc3ccccc3c2)nn1	ache			20 µM	47 ± 2%
CN[C@@H]1[C@H](O)[C@H](NC)[C@H]2O[C@]3(O)[C@H](O[C@@H]2[C@H]1O)O[C@H](C)C[C@H]3NC(=O)Cc1ccc(Cl)cn1	Neuropeptide Y receptor type 1 (NPY1R, Homo sapiens, UniProt P25929)	ligand displacement, radioligand		10 µM	-2%
C[n+]1cn([C@@H]2O[C@H](COP(=O)([O-])NP(=O)(O)O)[C@@H](O)[C@H]2O)c2nc(N)nc(O)c21	dcp2 with Dcp1			200 µM, 0.5 h	26.1%
c1ccc2[nH]ccc2c1	ache	enzyme activity, inhibitor, Ellman		20 µM	38.9%
CN(/N=C/c1ccccc1C(=O)O)c1nc(-c2ccccc2Cl)cs1	Discoidin domain-containing receptor 2 (DDR2, Homo sapiens, UniProt Q16832)	enzyme activity, inhibitor		1 µM	-41.8%
C=CC(=O)Nc1cc(-c2nn(C3CCC(N4CCN(C(C)=O)CC4)CC3)c3ncnc(N)c23)ccc1Oc1ccccc1 (stereo not shown)	Receptor tyrosine-protein kinase erbB-2 (ERBB2, Homo sapiens, UniProt P04626)	inhibitor, KiNativ profiling	biochemical	2 µM	69.8%
CN1CCNCC1	ache	enzyme activity, inhibitor, Ellman		20 µM	35.2%
BP(=O)(OC[C@H]1O[C@@H](n2c[n+](C)c3c(O)nc(N)nc32)[C@H](O)[C@@H]1O)OP(=O)([O-])OP(=O)(O)O (stereo partly shown)	dcp2 with Dcp1			200 µM, 0.5 h	30.3%
O=C1c2ccccc2CCCN1CCCCN1CCN(c2cccc(Cl)c2Cl)CC1	5-hydroxytryptamine receptor 7 (HTR7, Homo sapiens, UniProt P34969)	radioligand binding		concentration not given, with: [3H]LSD	101%
O=C(O)c1ccccc1/C=N/Nc1nc(-c2ccccc2Cl)cs1	Muscle, skeletal receptor tyrosine-protein kinase (MUSK, Homo sapiens, UniProt O15146)	enzyme activity, inhibitor		1 µM	-2.8%
CCCCN(C)c1c(C)nc2ccc(C(=O)N3CCC[C@@H](C(N)=O)C3)cn12	ache	enzyme activity, inhibitor, Ellman		5 µM	69%
C[C@H](NCc1ccc(-c2ccc(C(F)(F)F)cc2)cc1)C(N)=O	MAP kinase-interacting serine/threonine-protein kinase 1 (MKNK1, Homo sapiens, UniProt Q9BUB5)	cell-free assay, competition with immobilised ligand		1 µM	5%
CN(C)[C@H]1C[C@@]23CC[C@@]4(O2)C(=CC[C@]2(C)[C@@H](c5ccc6ccncc6c5)CC[C@H]24)C=C3[C@@H](O)[C@@H]1O	MAP/microtubule affinity-regulating kinase 4 (MARK4, Homo sapiens, UniProt Q96L34)	ATP probe labelling, inhibitor, KiNativ profiling		0.1 µM	1.4%
C1CCNC1	ache	enzyme activity, inhibitor, Ellman		20 µM	36.6%
O=C(CP(=O)(Oc1ccccc1)Oc1ccccc1)N/N=C\c1ncccc1F	Protein phosphatase methylesterase 1 (Homo sapiens, UniProt Q9Y570)	enzyme activity, inhibitor, gel-based ABPP	overexpression lysate	concentration not given	inactive
CC(=O)NC[C@@H]1[C@@H](O)C[C@H]2[C@H](O)C[C@@H](CO)N12	human placental β-N-acetylglucosaminidase			0.0214 µM, run 1, with: p-nitrophenyl GlcNAc	25.8%
CC(C)[C@H]1NC(=O)C[C@H]2/C=C/CCSSC[C@@H](NC1=O)C(=O)N[C@H](Cc1cccc3ccccc13)C(=O)NCC(=O)O2	SRSF protein kinase 2 (SRPK2, Homo sapiens, UniProt P78362)	enzyme activity, inhibitor		10 µM	0.8%
CS(C)(=O)=Nc1ccc(-c2ccc(-c3nc4cc(O[C@@H]5CO[C@H]6[C@@H]5OC[C@H]6O)[nH]c4cc3F)cc2)cc1	L-type Ca2+ channel verapamil site	binding		10 µM	10%

Excerpt of the above:
Compound	target	assay	system	setting	inhibition
O=C(CP(=O)(Oc1ccccc1)Oc1ccccc1)N/N=C\c1ncccc1F	Protein phosphatase methylesterase 1 (Homo sapiens, UniProt Q9Y570)	enzyme activity, inhibitor, gel-based ABPP	overexpression lysate	concentration not given	inactive
CC(=O)NC[C@@H]1[C@@H](O)C[C@H]2[C@H](O)C[C@@H](CO)N12	human placental β-N-acetylglucosaminidase			0.0214 µM, run 1, with: p-nitrophenyl GlcNAc	25.8%
